# Published values collected from several papers.
# Lines come from different studies, so protocols differ. Values joined by “and” are separate records of one study, mostly repeats; a detail may differ. ± gives the spread as reported.
Structure (SMILES),assay,system,setting,scale,endpoint,result
O=S(=O)(Nc1ccccc1)c1ccc(NC(=S)Nc2ccccc2)cc1,,"mouse, male, blood","oral, 80 mg/kg daily, 14 days",,mean platelet volume,4.58 fL
CC(C)C[C@H](NC(=O)[C@H](CCCCN)NC(=O)OCC1c2ccccc2-c2ccccc21)C(=O)N[C@H](C(=O)N[C@@H](Cc1ccccc1)C(=O)N[C@@H](Cc1ccccc1)C(=O)N[C@@H](CCCCN)C(=O)NCC(=O)N[C@@H](Cc1ccccc1)C(=O)N[C@@H](C)C(=O)N[C@@H](Cc1c[nH]c2ccccc12)C(=O)N[C@@H](CC(N)=O)C(=O)N[C@H](C(=O)N[C@H]1CSSC[C@@H](C(=O)N[C@@H](Cc2c[nH]cn2)C(=O)N[C@@H](CCCNC(=N)N)C(=O)N[C@@H](CCCNC(=N)N)C(=O)N[C@@H](C)C(=O)N[C@@H](CC(N)=O)C(N)=O)NC(=O)[C@H](C(C)C)NC(=O)[C@H](CCCNC(=N)N)NC(=O)[C@H](C(C)C)NC(=O)CNC(=O)[C@H](CC(N)=O)NC(=O)[C@H](CCCNC(=N)N)NC(=O)[C@H](Cc2ccc(O)cc2)NC(=O)[C@H](C(C)C)NC1=O)C(C)C)C(C)C,,"ICR mouse, blood","intramammary, 5 mg/kg, day 5, 3 d dosing",,AST,25.4 ± 0.63 IU/L
CN1CC[C@@H](c2c(O)cc(O)c3c(=O)cc(-c4ccc(C(F)(F)F)cc4Cl)oc23)[C@@H]1CO,item: Fatigue,AML,"oral, 200 mg, intermittent dosing",,patients with adverse event,40%
C[C@]1(CO)Cc2ncn(-c3ccc(C#N)c(Cl)c3)c2C(=O)O1,,Japanese subjects,80 mg single dose,,drug-related Dizziness incidence,0%
CN[C@@H](C)C(=O)N[C@H]1CN(S(=O)(=O)c2cccc(S(=O)(=O)N3CC[C@H]4CC[C@@H](C(=O)NC(c5ccccc5)c5ccccc5)N4C(=O)[C@@H](NC(=O)[C@H](C)NC)C3)c2)CC[C@H]2CC[C@@H](C(=O)NC(c3ccccc3)c3ccccc3)N2C1=O,,patients with advanced solid tumours,"0.6 mg, phase I monotherapy",,treatment-related AST elevation incidence,0%
Oc1c(Cl)cc2c(c1Cl)Oc1cc(Cl)c(Cl)cc1O2,,cow whole milk,100 nM,baseline: milk fat over skim milk,milk fat partition ratio,25.1
COc1ccc([C@@H]2CC(=O)c3c(O)cc(O)cc3O2)cc1O,,"male Sprague-Dawley rat, lean","oral, 100 mg/kg of neohesperidin, 0 to 12 h, after β-glucuronidase/sulfatase hydrolysis",,"urinary excreted amount, total",5030 ± 3030 ng
CC(=O)c1c(C)c2cnc(Nc3ccc(C4CCN(CCS(C)(=O)=O)CC4)cn3)nc2n(C2CCCC2)c1=O,,"human, plasma","oral, 25 mg, day 1 single dose",,Vd,2080 L
CO[C@H]1C[C@@H]2CC[C@@H](C)[C@@](O)(O2)C(=O)C(=O)N2CCCC[C@H]2C(=O)O[C@H]([C@H](C)C[C@@H]2CC[C@@H](OC(=O)NCCOCCOCCOCCOCCOCCOCCOCCOCCC(=O)N3CCc4cc(Cn5nc(-c6ccc7oc(N)nc7c6)c6c(N)ncnc65)ccc4C3)[C@H](OC)C2)C[C@@H](O)[C@H](C)/C=C(\C)[C@@H](O)[C@@H](OC)C(=O)[C@H](C)C[C@H](C)/C=C/C=C/C=C/1C,phase 1 dose escalation,advanced solid tumour patients,"intravenous, 8 mg weekly, grade ≥3",,any TRAE incidence,31.3%
C=CC(=O)N1CC[C@H](n2nc(C#Cc3cc(OC)cc(OC)c3)c3c(N)ncnc32)C1,,"human patients, serum","oral, dose not given, QD, before phosphate binder start",,"serum phosphate, median",5.85 mg/dL
COc1cc(N2CCC(N3CCN(C)CC3)CC2)ccc1Nc1ncnc(Nc2ccccc2S(=O)(=O)C(C)C)n1,item: Diarrhea,Japanese patients with solid tumours,"oral, dose not given, all grades",,treatment-emergent adverse events,7 number (percent)
CN1CCN(S(=O)(=O)c2cc([N+](=O)[O-])ccc2N(CCOS(C)(=O)=O)CCOS(C)(=O)=O)CC1,,"NOD/SCID mouse, naive, blood","intraperitoneal, 12.5 mg/kg, week 1",,hemoglobin,126 g/L and 150 g/L and 144 g/L and 156 g/L
Cc1cc(C)c(CNC(=O)c2cc(Cl)c3c(c2C)O[C@@](C)([C@H]2CC[C@H](N(C)C)CC2)O3)c(=O)[nH]1,,relapsed/refractory NHL patients,"dose not given, trial, safety set, treatment-related TEAE grade 5",,incidence of muscle spasms,0%
NC(=O)[C@H]1CCN(c2ncnc(N)c2F)C[C@@H]1N1CCC[C@@H](Nc2cc(Cl)cc(C(F)(F)F)c2)C1=O,,B-cell malignancy patients,"oral, 20.5 mg twice daily, dose",,grade ≥3 leukocytosis,0%

# Excerpt of the above:
Structure (SMILES),assay,system,setting,scale,endpoint,result
CC(C)C[C@H](NC(=O)[C@H](CCCCN)NC(=O)OCC1c2ccccc2-c2ccccc21)C(=O)N[C@H](C(=O)N[C@@H](Cc1ccccc1)C(=O)N[C@@H](Cc1ccccc1)C(=O)N[C@@H](CCCCN)C(=O)NCC(=O)N[C@@H](Cc1ccccc1)C(=O)N[C@@H](C)C(=O)N[C@@H](Cc1c[nH]c2ccccc12)C(=O)N[C@@H](CC(N)=O)C(=O)N[C@H](C(=O)N[C@H]1CSSC[C@@H](C(=O)N[C@@H](Cc2c[nH]cn2)C(=O)N[C@@H](CCCNC(=N)N)C(=O)N[C@@H](CCCNC(=N)N)C(=O)N[C@@H](C)C(=O)N[C@@H](CC(N)=O)C(N)=O)NC(=O)[C@H](C(C)C)NC(=O)[C@H](CCCNC(=N)N)NC(=O)[C@H](C(C)C)NC(=O)CNC(=O)[C@H](CC(N)=O)NC(=O)[C@H](CCCNC(=N)N)NC(=O)[C@H](Cc2ccc(O)cc2)NC(=O)[C@H](C(C)C)NC1=O)C(C)C)C(C)C,,"ICR mouse, blood","intramammary, 5 mg/kg, day 5, 3 d dosing",,AST,25.4 ± 0.63 IU/L
COc1cc(N2CCC(N3CCN(C)CC3)CC2)ccc1Nc1ncnc(Nc2ccccc2S(=O)(=O)C(C)C)n1,item: Diarrhea,Japanese patients with solid tumours,"oral, dose not given, all grades",,treatment-emergent adverse events,7 number (percent)
